Measurements collected from several papers.
A part holds a random share of what one study measured.

Sample 1 — method: RNAcompete; molecule type: RNA; sample: in vitro; concentration: 20 nM; setting: 7-mer, probes averaged, single round; baseline: mean of 7-mers; direction: higher = stronger binding
Target: PABPC1L2, full length, GST fusion (mouse, UniProt A0ABA7IW68)
Construct (chain): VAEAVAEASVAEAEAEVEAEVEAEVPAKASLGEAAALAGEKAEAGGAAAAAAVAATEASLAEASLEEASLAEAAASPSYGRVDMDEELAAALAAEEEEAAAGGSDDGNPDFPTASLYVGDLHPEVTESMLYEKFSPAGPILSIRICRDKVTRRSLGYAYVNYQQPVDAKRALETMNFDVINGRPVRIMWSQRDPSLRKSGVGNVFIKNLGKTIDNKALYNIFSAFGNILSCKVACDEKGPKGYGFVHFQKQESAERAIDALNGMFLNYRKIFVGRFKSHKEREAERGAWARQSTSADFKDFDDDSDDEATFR
| Oligonucleotide | 7-mer Z-score |
| --- | --- |
| UAUCUCC | -0.385 |
| GAGUCGG | -0.0899 |
| AGUAUCG | -0.101 |
| CAGGCCC | -0.135 |
| UGUACUU | -0.264 |
| CCCCUCU | -0.374 |
| CAAGAAU | 0.0587 |
| ACGGCGG | 0.343 |
| AGAAAAA | 11.7 |
| UCACGCA | -0.0935 |
| AACAACU | 0.445 |
| UUGCGGA | -0.0699 |
| CCCGGAC | -0.287 |
| CGUCGGG | -0.0482 |
| GCGUCUC | -0.309 |

Sample 2 — method: protein-binding microarray; molecule type: double-stranded DNA, one strand shown; sample: in vitro; concentration: not given; direction: higher = stronger binding
Target: Max-binding protein MNT, bHLH-zipper, MAX partner unstated (MNT, Homo sapiens, UniProt Q99583, residues 220-300)
Setting: k-mer, scored over probes, only values ≥0.25
Target sequence (chain): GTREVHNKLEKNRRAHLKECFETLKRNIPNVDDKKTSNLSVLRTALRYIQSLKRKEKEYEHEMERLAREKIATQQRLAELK
| Oligonucleotide | E-score |
| --- | --- |
| AATCACGC | 0.351 |
| ACATGATC | 0.346 |
| ACGTGTAG | 0.419 |
| AAACACGT | 0.417 |
| GTGACCAC | 0.337 |
| GCAAGCAC | 0.262 |
| CCACGCCG | 0.37 |

Sample 3 — method: RNA Bind-n-Seq; molecule type: RNA; sample: in vitro; concentration: 20 nM; setting: 6-mer, flanks averaged, single round; added: 150 mM KCl; baseline: input library; direction: higher = stronger binding
Target: TAR DNA-binding protein 43, full length, His tag (TARDBP, Homo sapiens, UniProt Q13148, residues 1-414)
| Oligonucleotide | 6-mer enrichment (R) |
| --- | --- |
| GCACGC | 0.964 |
| GUGUUA | 0.928 |
| CAAACC | 0.587 |
| UCCGGA | 0.843 |
| CACUGC | 0.676 |
| AAUACU | 0.619 |
| UUGUGA | 0.826 |
| UGGGGG | 7.96 |
| GAUCGG | 1.47 |
| CUACGG | 0.981 |

Further values, each from its own experiment
| Molecule | target | assay | system | conditions | how to read | measurement | value |
| --- | --- | --- | --- | --- | --- | --- | --- |
| PhoQ, residues 284 288 289 292 302 303 SLANKL | PhoP, residues 12 14 15 18 19 AQCLL (Escherichia coli, UniProt P23836) | Sort-seq, measured: YFP reporter | E. coli | PhoQ-PhoP variant library, added: 10 µM Mg2+ | baseline: high Mg2+ state, higher = stronger signaling | fold induction | 6.25 |
